Measurements pooled from the literature.
Values joined by “and” are separate records of one study, mostly repeats; a detail may differ. ± marks the error that the study gave.

Protein sequences, listed by entry. Tags and fused reporters are not part of them. Lines headed by an entry give the natural chain unless they say otherwise; changes in a name come on top. Residues count along the entry.
UniProt P29320, 29-207 limits assumed: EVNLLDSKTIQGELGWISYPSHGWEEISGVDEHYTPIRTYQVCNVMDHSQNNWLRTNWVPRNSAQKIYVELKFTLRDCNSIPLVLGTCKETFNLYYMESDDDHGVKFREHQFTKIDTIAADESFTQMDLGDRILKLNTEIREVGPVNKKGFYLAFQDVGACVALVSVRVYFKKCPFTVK
UniProt Q00959, whole entry, looked up: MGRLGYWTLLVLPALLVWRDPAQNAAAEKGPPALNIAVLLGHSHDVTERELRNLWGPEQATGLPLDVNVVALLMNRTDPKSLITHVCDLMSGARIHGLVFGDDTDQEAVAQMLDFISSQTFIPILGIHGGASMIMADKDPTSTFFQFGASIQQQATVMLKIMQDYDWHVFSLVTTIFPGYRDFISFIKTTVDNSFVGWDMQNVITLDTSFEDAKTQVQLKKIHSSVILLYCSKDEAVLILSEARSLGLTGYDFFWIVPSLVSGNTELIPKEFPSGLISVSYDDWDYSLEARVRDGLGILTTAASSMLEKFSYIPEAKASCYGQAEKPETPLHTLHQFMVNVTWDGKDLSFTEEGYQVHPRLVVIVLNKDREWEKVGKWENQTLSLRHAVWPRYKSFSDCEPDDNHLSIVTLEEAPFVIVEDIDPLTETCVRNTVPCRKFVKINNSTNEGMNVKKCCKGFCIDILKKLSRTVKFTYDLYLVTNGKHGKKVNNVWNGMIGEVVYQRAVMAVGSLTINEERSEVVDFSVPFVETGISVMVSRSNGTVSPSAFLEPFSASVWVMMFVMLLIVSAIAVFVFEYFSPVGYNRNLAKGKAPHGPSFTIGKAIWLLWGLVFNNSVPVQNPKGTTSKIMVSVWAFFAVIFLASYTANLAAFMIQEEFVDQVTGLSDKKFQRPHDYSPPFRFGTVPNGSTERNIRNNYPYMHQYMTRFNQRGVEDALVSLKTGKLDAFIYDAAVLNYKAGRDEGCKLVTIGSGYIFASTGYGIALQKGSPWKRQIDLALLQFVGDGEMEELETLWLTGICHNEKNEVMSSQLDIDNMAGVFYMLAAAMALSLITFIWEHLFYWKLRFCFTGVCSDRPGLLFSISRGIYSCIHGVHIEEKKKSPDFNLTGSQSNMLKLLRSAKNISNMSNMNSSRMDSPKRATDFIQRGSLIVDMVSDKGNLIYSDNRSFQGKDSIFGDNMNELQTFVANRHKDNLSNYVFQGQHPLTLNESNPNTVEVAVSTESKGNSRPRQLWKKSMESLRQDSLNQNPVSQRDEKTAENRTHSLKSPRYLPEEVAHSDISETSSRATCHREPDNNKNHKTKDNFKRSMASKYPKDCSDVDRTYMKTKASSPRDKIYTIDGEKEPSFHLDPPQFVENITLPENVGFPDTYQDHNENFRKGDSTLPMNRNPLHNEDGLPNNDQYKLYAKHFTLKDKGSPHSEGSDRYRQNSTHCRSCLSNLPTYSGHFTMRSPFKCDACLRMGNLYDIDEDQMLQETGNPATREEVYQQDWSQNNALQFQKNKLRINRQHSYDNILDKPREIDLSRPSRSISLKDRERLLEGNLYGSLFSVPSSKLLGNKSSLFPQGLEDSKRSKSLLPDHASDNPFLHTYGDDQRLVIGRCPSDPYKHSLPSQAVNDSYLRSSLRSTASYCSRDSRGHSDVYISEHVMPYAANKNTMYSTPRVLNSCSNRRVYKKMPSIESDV
UniProt P06276, whole entry, looked up: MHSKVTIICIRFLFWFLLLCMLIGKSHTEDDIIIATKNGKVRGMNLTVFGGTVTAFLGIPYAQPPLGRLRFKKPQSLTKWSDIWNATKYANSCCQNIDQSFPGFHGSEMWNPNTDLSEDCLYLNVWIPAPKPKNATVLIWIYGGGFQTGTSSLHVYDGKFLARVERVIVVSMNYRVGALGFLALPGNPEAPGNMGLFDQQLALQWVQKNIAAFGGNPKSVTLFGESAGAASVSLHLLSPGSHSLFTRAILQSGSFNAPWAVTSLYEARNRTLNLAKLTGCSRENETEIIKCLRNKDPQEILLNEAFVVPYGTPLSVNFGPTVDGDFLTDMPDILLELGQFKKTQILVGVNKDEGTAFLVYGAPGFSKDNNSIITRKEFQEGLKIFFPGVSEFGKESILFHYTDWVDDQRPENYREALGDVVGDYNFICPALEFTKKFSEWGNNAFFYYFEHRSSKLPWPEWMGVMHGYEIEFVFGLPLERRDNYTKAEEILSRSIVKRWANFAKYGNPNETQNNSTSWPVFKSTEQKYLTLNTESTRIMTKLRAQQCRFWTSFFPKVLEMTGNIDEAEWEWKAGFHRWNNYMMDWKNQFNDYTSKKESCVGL
UniProt P04629, whole entry, looked up: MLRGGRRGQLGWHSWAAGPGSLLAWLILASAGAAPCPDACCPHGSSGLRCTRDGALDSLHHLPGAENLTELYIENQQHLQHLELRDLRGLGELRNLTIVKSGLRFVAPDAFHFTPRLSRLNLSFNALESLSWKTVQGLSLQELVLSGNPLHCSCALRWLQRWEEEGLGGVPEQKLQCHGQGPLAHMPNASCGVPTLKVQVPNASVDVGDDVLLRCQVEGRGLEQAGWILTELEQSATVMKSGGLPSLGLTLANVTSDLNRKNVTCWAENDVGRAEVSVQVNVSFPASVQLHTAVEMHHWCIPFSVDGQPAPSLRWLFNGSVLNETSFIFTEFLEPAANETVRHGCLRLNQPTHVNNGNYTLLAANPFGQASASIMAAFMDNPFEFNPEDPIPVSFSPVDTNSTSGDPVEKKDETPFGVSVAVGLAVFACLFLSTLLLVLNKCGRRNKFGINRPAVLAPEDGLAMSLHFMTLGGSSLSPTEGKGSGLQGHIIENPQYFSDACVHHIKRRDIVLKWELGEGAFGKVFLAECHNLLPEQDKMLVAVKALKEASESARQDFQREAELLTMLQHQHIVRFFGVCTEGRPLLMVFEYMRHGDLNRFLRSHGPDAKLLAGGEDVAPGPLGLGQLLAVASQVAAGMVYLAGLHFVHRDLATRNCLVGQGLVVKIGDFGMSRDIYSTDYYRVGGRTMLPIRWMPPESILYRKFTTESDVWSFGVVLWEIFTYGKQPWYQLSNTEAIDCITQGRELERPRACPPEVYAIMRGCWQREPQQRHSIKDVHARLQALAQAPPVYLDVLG
UniProt P46098, 24-478 limits assumed: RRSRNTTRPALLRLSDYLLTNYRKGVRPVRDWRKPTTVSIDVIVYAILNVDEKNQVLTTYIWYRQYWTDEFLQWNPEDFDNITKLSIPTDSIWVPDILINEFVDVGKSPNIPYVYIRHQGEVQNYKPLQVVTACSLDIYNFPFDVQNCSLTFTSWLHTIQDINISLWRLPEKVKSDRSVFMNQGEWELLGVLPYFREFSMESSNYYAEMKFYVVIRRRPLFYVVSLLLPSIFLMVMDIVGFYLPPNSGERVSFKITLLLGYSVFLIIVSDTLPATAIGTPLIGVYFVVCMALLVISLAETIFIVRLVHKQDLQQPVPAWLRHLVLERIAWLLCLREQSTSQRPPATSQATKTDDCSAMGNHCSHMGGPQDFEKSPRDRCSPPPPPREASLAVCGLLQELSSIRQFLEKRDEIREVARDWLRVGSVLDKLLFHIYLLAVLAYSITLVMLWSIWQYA
UniProt P10398, whole entry: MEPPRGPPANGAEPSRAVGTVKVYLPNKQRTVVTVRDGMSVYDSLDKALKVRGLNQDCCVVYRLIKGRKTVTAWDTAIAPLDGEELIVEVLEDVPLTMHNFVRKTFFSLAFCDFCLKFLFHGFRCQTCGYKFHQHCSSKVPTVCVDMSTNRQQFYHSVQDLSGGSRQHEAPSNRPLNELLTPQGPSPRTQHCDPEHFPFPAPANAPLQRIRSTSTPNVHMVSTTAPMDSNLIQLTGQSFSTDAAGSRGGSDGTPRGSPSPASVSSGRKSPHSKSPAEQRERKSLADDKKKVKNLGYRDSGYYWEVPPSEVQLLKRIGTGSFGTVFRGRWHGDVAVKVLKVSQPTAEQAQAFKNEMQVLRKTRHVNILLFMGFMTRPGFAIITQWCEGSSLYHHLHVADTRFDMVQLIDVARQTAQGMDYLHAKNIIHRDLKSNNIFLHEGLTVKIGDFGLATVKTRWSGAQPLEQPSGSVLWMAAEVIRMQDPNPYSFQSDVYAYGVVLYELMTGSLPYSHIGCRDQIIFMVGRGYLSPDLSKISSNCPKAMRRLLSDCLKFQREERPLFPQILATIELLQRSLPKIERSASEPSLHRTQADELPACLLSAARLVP
UniProt P28072, whole entry, looked up: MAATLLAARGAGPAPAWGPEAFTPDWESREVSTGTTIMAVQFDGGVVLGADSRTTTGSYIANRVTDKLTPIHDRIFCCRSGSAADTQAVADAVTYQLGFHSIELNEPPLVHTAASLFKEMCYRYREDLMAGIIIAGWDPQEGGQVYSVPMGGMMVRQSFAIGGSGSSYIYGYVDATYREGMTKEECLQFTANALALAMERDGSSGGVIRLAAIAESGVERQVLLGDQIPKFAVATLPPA

For `COc1ccc2[nH]cc(CCNC(=O)[C@H](Cc3ccncc3)NC(=O)[C@H](Cc3ccc(Cl)cc3)NC(=O)[C@H](Cc3c[nH]c4ccc(O)cc34)NC(=O)CCCN)c2c1`, the TΔS was 5.75 kcal/mol (EPHA3 (Homo sapiens, UniProt P29320); binding, isothermal titration calorimetry).
With `COc1ccc(OC[C@H]2c3cccn3CC(=O)N2Cc2cccc(F)c2)cc1` the charge transfer was 1.9 ± 0.7 fold (Glutamate receptor ionotropic, NMDA 2A, with GluN1 (Grin2a, Rattus norvegicus, UniProt Q00959); ion current, whole-cell patch clamp; HEK293T cells, transfected; 10 µM, together with: glutamate for 10 ms; baseline: baseline).
`CCCCCCCCCCC/C=C/c1ccc2cc(CP(=O)(O)O)ccc2c1` has a remaining activity of 17.3% (Autotaxin (ENPP2, Homo sapiens, UniProt Q13822); inhibitor; 10 µM, 2 h, 2 nM autotaxin, together with: 1 µM FS-3 substrate; baseline: untreated).
`CCN(CC)c1ccc2c(O)c(C=Nc3ccc(CC(=O)NNc4c5c(nc6ccccc46)CCCC5)cc3)c(=O)oc2c1` gave an efficacy of -99.3 ± 5.35% (Cholinesterase (BCHE, Homo sapiens, UniProt P06276); enzyme activity).
With `CC#C/C(=N\OC[C@H]1COCCN1)c1ccc2ncnc(Nc3ccc(OCc4cccc(F)c4)c(Cl)c3)c2c1` the inhibition was 6.5% (NTRK1 (Homo sapiens, UniProt P04629); kinase activity; 10 µM).
The current response of `CCN(CC)C(=O)Oc1ccc(C(=O)Nc2cccc3cc[nH]c23)cc1` is reported as 94.5 ± 4.5% (HTR3A (Homo sapiens, UniProt P46098); modulator, two-electrode voltage clamp; Xenopus oocytes; 20 µM, together with: 1 µM serotonin; baseline: agonist alone).
For `CC1(C)S[C@@H]2CS[C@@H](CS)N2[C@H]1C(=O)O`, “k2 (E*I formation)” read 9e-05 ± 0.004 s⁻¹ (VIM-2 (Escherichia coli, UniProt Q5U7L7); slow-binding inhibitor; Pseudomonas aeruginosa; together with: nitrocefin).
For `CCN1CCN(Cc2ccc(NC(=O)c3ccc(C)c(/C=C/c4cnc5[nH]ccc5c4OC)c3)cc2C(F)(F)F)CC1`, “log2 fold change” read 0.544 and 0.318 (Serine/threonine-protein kinase A-Raf, with CDC37 (ARAF, Homo sapiens, UniProt P10398); inhibitor, cell-based kinome screen; 5 µM; baseline: vehicle).
With `O=c1oc(-c2ccccn2)ns1` the kobs/[I] was 0.72 M⁻¹ s⁻¹ (PSMB6 (Homo sapiens, UniProt P28072); inactivation; human PA28-activated proteasome).

Some of these lines once more:
`CCN(CC)c1ccc2c(O)c(C=Nc3ccc(CC(=O)NNc4c5c(nc6ccccc46)CCCC5)cc3)c(=O)oc2c1` gave an efficacy of -99.3 ± 5.35% (Cholinesterase (BCHE, Homo sapiens, UniProt P06276); enzyme activity).
